Results from different studies.
Each numbered part is a random draw from the data of one study; scales do not carry over between parts. Changes are numbered by the printed parent chain.

Series 1
Target: TAR DNA-binding protein 43, full length, His tag (TARDBP, Homo sapiens, UniProt Q13148, residues 1-414)
Method: RNA Bind-n-Seq
Molecule type: RNA
Matrix: in vitro
Concentration: 20 nM
Setting: 6-mer, flanks averaged, single round
Together with: 150 mM LiCl
Relative to: input library
Direction: higher = stronger binding
Oligonucleotide | 6-mer enrichment (R)
UUCAAU | 0.918
AGUUCA | 0.857
CAGCUU | 0.869
ACCCCU | 1.1
CCUGGU | 0.977
AGGGGU | 1.25
AUGGCG | 1.04
CUGUCA | 0.856
GGAGAU | 1.04
CCGAGU | 1
AUGGAU | 0.993
GCUUGA | 0.982
UUCUCC | 0.993

Series 2
Target: CCNE1, cyclin fold, Cln2 fusion (human)
Method: yeast growth competition, sequencing
Matrix: yeast
Setting: weak parent motif
Relative to: not given
Direction: higher = stronger binding
Starting sequence: RB1 docking peptide (human); PKPLKKLRFDIEG
Variant | normalised enrichment score
K2M | 0.119
R8S | 0.223
R8A | -0.174
E12F | 0.891
F9R | -0.117
G13K | 1.42
P1S | -0.314
L4C | 0.603
E12Q | 0.295
R8E | 0.309
R8P | 0.637
K2S | 0.0619
L4S | 0.706
K6N | 0.00949
L4N | 0.375
K6G | -0.215
K5A | -0.347
R8D | 0.38
F9C | -0.287
I11E | 0.381
K6I | 0.0155
F9A | 0.905
I11Y | -0.0143
K2I | 0.724
R8M | 0.635

Series 3
Target: Interferon regulatory factor 5, full length, phosphomimetic (IRF5, Homo sapiens, UniProt Q13568-2, residues 1-514, K96S/S451D/S453D/S456D/S462D)
Method: protein-binding microarray
Molecule type: double-stranded DNA, one strand shown
Matrix: in vitro
Concentration: 250 nM
Setting: 60-bp whole probe
Together with: salmon DNA 0.4 mg/ml
Relative to: random background probes
Direction: higher = stronger binding
Shared flanks, not repeated: GCCTAGCAC … GTCTTGATTCGCTTGACGCTGCTG
Oligonucleotide | log fluorescence [z-score]
TGGTTTTTACTTTCTGAATGGTGCTAG | 3.83
TTAGATATCAGACTGTATTAGTGCTAG | 0.49
GACGGTATCCTTATCATGACGTGCTAG | 0.312
TTAGGTTTCATTTTCCTTTAGTGCTAG | 4.01
TTAAGTATCGACACTGGGTTAGTGCTA | 3.99
GCATCGTAAGCAAAAATGATGTGCTAG | 0.4
TTTTTTTTTTTTTTGTATTTGTGCTAG | 1.58
TTAGGTATCGGGACTGGCTTAGTGCTA | 1.83
TTGTTTTTTGGTTTCTGGTTGTGCTAG | 3.76
TTAGATCTCAGACTGTATTAGTGCTAG | 0.103
GTAGATTTCGGGTTTCGATTAGTGCTA | 8.36
GATGGTTTCGGTTCCGGGACGTGCTAG | 10.1
GACGGACTGGACTTTCGGGAGGTGCTA | 4
GACGGACTGAACACTGGGGACGTGCTA | -0.535
GACGATTCCAGTTTCGCGACGTGCTAG | 1.35
GACGATTCCAGTTTTGAGACGTGCTAG | 0.155
GACGGTTCCAGTTTCGAGACGTGCTAG | 5.2
TCAGATTTTCCCATGAGACTGTGCTAG | 0.345
TTAGCTTTCCTACTGCTTTAGTGCTAG | 0.612
GACGATACCAGTATCGAGACGTGCTAG | 2.62
TTAGGTCTCCTACTGCGTTAGTGCTAG | -0.293
TTTTTTTTGTATTTTTGATAGTGCTAG | 1.79
GACGAACTGGGGTATCGTGACGTGCTA | 0.011
TCATATTTGCTTCAGGTACTGTGCTAG | 0.665
TCATATTTATAAATTATACTGTGCTAG | 0.813

Series 4
Target: Centromere-binding protein 1, full length, His-tagged (CBF1, Saccharomyces cerevisiae, UniProt P17106, residues 1-351)
Chain of UniProt P17106 (whole entry, looked up): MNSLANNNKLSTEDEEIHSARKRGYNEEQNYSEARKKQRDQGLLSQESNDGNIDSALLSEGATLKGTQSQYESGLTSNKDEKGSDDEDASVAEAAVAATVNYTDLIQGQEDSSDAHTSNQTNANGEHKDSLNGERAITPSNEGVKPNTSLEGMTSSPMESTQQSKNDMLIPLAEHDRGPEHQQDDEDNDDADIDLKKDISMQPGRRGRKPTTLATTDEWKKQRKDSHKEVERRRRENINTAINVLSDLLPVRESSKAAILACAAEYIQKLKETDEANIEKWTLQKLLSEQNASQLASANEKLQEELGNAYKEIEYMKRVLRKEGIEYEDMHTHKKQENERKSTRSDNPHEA
Method: competition protein-binding microarray
Molecule type: double-stranded DNA, one strand shown
Matrix: in vitro
Concentration: 2 µM
Setting: whole 60-bp probe, lowest competitor level
Together with: Pho4 competitor, 0.05 µM
Direction: higher = stronger binding
Oligonucleotide | fluorescence intensity [a.u.]
GAAGAGGTGCCTTGTCACCTGACGCCTTATTTTGTGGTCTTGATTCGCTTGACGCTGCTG | 1350
AAAGCGGTAATTTGTCACCTTACTTCACATATCTATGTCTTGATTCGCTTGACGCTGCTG | 89.1
TTCTGTAGGTTATACCATGTGCTAAATGTAGTGGTCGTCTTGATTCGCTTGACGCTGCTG | 181
GATGCCCTGCACCTTCGCGTGAGGAAAAGCAAAAAGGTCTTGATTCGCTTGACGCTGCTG | 63.1
ATACGTATGTGTTCGTACGTGCGATCCGCAAGGTCTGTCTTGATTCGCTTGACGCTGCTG | 75.4
GCAGATAGACGCTCGCCCGTGAGCCACTCAGGACGCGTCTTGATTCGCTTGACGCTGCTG | 58.5
CAAGGATACTAGAACCATGTGAGAATCGGTACCGTTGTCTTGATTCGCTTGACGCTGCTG | 96.8
CATACCCAACCTTGGACTGTGGGTGAAGATATTTGTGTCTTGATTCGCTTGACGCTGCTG | 55.9
GTCTTGTCTCATTGTCACCCTACTTTCCCCACTTCAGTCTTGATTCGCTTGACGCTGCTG | 83.2
AAAGCGGTAATTTGAGGAGTGGGTGCAGATATCTATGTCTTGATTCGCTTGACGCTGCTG | 64.8
CATACCCAACCTTGGGGCGTGGGTGAAGATATTTGTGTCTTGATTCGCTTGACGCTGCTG | 68.8
ACTTTGTTATTAATCCACGTGAGGACCAAATCTATGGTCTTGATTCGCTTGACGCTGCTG | 1780
ACTATGATATTATTCCATGTGTCGCAAAACCAGAAAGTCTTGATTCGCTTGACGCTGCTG | 96.5
TCATTCAGCATTCTCTGCATGACAGCTCTGGCTTCAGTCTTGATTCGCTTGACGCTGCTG | 66.3
ATCTTCTGGCCGAGTCACGGGCCAAGCGTAAGGGTGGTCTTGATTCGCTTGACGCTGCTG | 329
CGAATTACTTGACGTATCGTGCCGATCCGTTGATGCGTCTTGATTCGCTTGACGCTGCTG | 69.2
CCGTTTCTACCAGTACACGTGTAGCCAATTTTATCGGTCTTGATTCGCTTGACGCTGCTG | 1450
TGTAAATATATCCATCACGTGAAATTAGTGGCGAGGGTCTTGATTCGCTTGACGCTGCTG | 3320
CTTTAAGTGCCGGGACAAGTTCCTGGTTATCGCGTTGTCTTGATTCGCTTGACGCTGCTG | 56.6
GCATTTGGTGAGATACACGTGCCAGTTGATAAGTACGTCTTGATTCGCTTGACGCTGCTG | 1740
CGGGGTTAAGTTTGTCACTTCACTTGCTTGCAGCAGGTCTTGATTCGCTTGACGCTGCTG | 76.1

Series 5
Target: RNA binding protein fox-1 homolog 2, RRM domain, GST-SBP tag (RBFOX2, Homo sapiens, UniProt O43251-10, residues 100-194)
Method: RNA Bind-n-Seq
Molecule type: RNA
Matrix: in vitro
Concentration: 365 nM
Setting: natural RNA segment, single round, ends assumed
Relative to: no-protein control
Direction: higher = stronger binding
Residues (chain): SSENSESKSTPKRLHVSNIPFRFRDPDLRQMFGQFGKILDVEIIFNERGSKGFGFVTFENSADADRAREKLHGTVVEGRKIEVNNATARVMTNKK
Oligonucleotide | RBNS enrichment (R)
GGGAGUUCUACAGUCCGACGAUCUCUGUGAUAGCUGUAGUUUCUUUCAUAGAAAGUAGCUAAUCCAGUGUAAUCUUUUACCUUUUUAAAAACCAAGAUAGAGUAUCUAUUAGAGUUUUACAUUGUUGAUGAUAUGGAAUUCUCGGGUGCCAA | 0.357
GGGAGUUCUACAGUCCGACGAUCUACUUUUUCUUAAAGCACCCGUUCACCUUCUUGGUUGAAGUUGUGUUAACAAUGCAGUAGCCAGCACGUUCGAGGCGGUUUCCAGGAAGAGUGUGCUUGUCAUCUGCCACUGGAAUUCUCGGGUGCCAA | 0.588
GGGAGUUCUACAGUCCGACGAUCACUGCUUUUGAUCUUCUGAUUCCUCUUGGGUUGACGCAGACCAAGUCCCGUCCUAGGCACCCAGUUUGGGGGGAGCCUGUAUUUUUUUUUUUAACGACACCCCUACUCCGUGGAAUUCUCGGGUGCCAA | 0.44
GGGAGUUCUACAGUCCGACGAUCGCCUUCCUAGGGUUUAAAGAACAGCAUUCAAAAUUCCCCGUCCUGUCAGUGUUUGCCUUCGCACCUCCUCCCCUAAAGCAGCGCGGGGGGCAAAUAAGACCCCACCCCUCUGGAAUUCUCGGGUGCCAA | 1.81
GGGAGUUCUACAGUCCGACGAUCAUUUCCUAACCAUGAGAAGCAGACUCUAAUAUUCAUAUUUAAACAAAGCAAUUUUUUUUAUUACUAAACAAGGUUUUUAUGAAUAAUAGCAUUGAUAUAUAUAUAUUAUAUGGAAUUCUCGGGUGCCAA | 0.541
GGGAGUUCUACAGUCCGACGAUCUUUGCAAAGCAGUGCAGAAAACUAUAAUCAAAUGUGACAUGUCUAUAAAAUAAUUUUGACAUAACAGACAUGAACAGACAUAAGAACGGCUUCCAAUGUUAAUUGAUAAUUGGAAUUCUCGGGUGCCAA | 0.621
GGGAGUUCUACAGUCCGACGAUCCAAAAAGAUGAAUUAUCAAUGAUUUGUAAUUAUAUCAGUUGAUUUUUUUUGAAAAGAUGAACCAAAGGAUUUGACUGCUAAUAUUUUAUUCCUUACACUUUUUUUCUGAAUGGAAUUCUCGGGUGCCAA | 0.892
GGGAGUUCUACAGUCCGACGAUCAAGAAAGAACUCUCCACCCCAGCUCCCACCCUGCCCUGGCCUGGGUGGAGGAACUGUGCCUCCAUCCCCAGAAGAAACAGCCCCCUCUGCUGCUGGGGUGGGACUGUCUGUGGAAUUCUCGGGUGCCAA | 0.486
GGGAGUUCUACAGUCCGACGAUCUAAUUUUAGUGUUUAAUGUUACAUGCUUAAAUUUUUUUCAGUUUUAACAGUGGCAUAUUUAGGCAUGGAAAUAUUAUUAUGAAAUUUAUUUUCAGGAUCUGCUAUAAGGUUGGAAUUCUCGGGUGCCAA | 0.61
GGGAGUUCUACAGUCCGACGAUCUUCGGAGCAUGAAGACCCUGGAGUUCAAAAAACUCUUGAUAUGACCUGUUAUUACCAUUAGCAUUCUGGUUUUGACAUCAGCAUUAGUCACUUUGAAAUGUAACGAAUGGUGGAAUUCUCGGGUGCCAA | 4.9
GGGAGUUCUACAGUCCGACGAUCGUAAACUGAGUUUGCUAAAUUGGGUCCCCAGAGGAUACCAUGAGAGUGGGUAGGGCAAAAAGAGCCCUUUCCGCCCUCUACCCAUCUAAUUCUGAUCCUCUACCUGUAGGUGGAAUUCUCGGGUGCCAA | 0.266
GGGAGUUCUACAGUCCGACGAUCGAUUGGGAAGAAAAGAAAUGGAUUUUUAUACACAUACACCAAAAAUAUUUUAAUGAUUCACUUGCCAAAUUACUUCCUGGGUGGUAUCAUUUCCUUAUCUCUCUGAUUAUUGGAAUUCUCGGGUGCCAA | 0.414

A few entries again (series 4):
Oligonucleotide | fluorescence intensity [a.u.]
GAAGAGGTGCCTTGTCACCTGACGCCTTATTTTGTGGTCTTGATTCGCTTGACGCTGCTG | 1350
CAAGGATACTAGAACCATGTGAGAATCGGTACCGTTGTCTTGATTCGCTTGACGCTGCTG | 96.8
CCGTTTCTACCAGTACACGTGTAGCCAATTTTATCGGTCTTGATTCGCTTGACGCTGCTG | 1450
ATCTTCTGGCCGAGTCACGGGCCAAGCGTAAGGGTGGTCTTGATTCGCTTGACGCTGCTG | 329
CGAATTACTTGACGTATCGTGCCGATCCGTTGATGCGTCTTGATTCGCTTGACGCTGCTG | 69.2
ATACGTATGTGTTCGTACGTGCGATCCGCAAGGTCTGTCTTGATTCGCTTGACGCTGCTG | 75.4
CTTTAAGTGCCGGGACAAGTTCCTGGTTATCGCGTTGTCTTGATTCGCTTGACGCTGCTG | 56.6
TCATTCAGCATTCTCTGCATGACAGCTCTGGCTTCAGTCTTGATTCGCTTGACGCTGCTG | 66.3
GTCTTGTCTCATTGTCACCCTACTTTCCCCACTTCAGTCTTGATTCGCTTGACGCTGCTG | 83.2
GCATTTGGTGAGATACACGTGCCAGTTGATAAGTACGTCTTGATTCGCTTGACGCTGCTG | 1740
